Results from different studies.
Each numbered part is a random draw from the data of one study; scales do not carry over between parts. “And” joins repeats or separate records; there may be more than shown.

Study 1 — effect on: enzyme activity; action: inhibitor; method: ADP detection; endpoint: inhibition
SMILES: CCN(CC)CC(=O)N1CCN(c2nc(NCc3nc4cc(Cl)c(Cl)cc4[nH]3)c3ncn(CC)c3n2)CC1
CDK2: Cyclin-dependent kinase 2 (CDK2, Homo sapiens, UniProt P24941)
CDK13: Cyclin-dependent kinase 13 (CDK13, Homo sapiens, UniProt Q14004)
CDK9: Cyclin-dependent kinase 9 (CDK9, Homo sapiens, UniProt P50750)
Chain of UniProt P50750 (whole entry, looked up): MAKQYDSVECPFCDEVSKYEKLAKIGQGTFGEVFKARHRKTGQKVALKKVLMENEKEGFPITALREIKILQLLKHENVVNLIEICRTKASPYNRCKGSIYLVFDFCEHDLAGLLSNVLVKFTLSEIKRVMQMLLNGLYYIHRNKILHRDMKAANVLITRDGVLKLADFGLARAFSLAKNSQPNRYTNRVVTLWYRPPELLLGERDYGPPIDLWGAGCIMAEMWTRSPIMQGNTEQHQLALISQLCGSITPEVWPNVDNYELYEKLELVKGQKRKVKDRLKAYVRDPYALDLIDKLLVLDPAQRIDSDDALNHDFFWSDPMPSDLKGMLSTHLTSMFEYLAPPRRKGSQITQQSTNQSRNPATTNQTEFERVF
CDK2; 13.7 nM: 5%
CDK2; 41.2 nM: -7%
CDK13; 1.5 nM: -1.5%
CDK9; 0.1235 µM: 3%
CDK13; 3.333 µM: 83%
CDK9; 500 pM: 0.6%
CDK13; 0.3704 µM: 44.1%
CDK13; 0.1235 µM: 17.9%

Study 2 — effect on: enzyme activity; action: inhibitor; method: Ub-TR-FRET; matrix: HECT domain; concentration: 0.01524 µM; reading: higher = more chain formation; endpoint: ubiquitin chain formation AUC
Target: E3 ubiquitin-protein ligase NEDD4, HECT domain (Homo sapiens, UniProt P46934)
CCOC(=O)/C=C/CNCCCCN1c2cc(Cl)ccc2C(=O)N(C)c2ccccc21.O=C(O)/C=C\C(=O)O: 92100 a.u. and 91600 a.u. and 92400 a.u.
CONC(=O)/C=C/CNCCCCN1c2ccccc2CCc2ccc(Cl)cc21.O=C(O)/C=C\C(=O)O: 40200 a.u. and 62600 a.u. and 66200 a.u. and 38700 a.u. and 39500 a.u. and 64600 a.u.
CCOC(=O)/C=C/CNCCCN1c2ccccc2CCc2ccc(Cl)cc21: 46900 a.u. and 44200 a.u. and 44900 a.u.
CCOC(=O)/C=C/CNCCCCN1c2cc(Cl)ccc2COc2ccccc21.O=C(O)/C=C\C(=O)O: 93200 a.u. and 93500 a.u.
CC(C)ONC(=O)/C=C/CNCCCCN1c2ccccc2CCc2ccc(Cl)cc21.O=C(O)/C=C\C(=O)O: 38200 a.u. and 32700 a.u. and 37700 a.u. and 38700 a.u. and 32100 a.u. and 32400 a.u.

Study 3 — route: intravenous; endpoint: concentration
SMILES: Cc1ncsc1-c1ccc(C(CO)NC(=O)C2CC(O)CN2C(=O)C(C(C)C)n2cc(-c3ccc(COc4c(-c5c(C)c(F)cc6[nH]ncc56)c(C5CC5)cc5c(N6CC7CC6CN7)nc(OC6CCOCC6)nc45)cc3)nn2)cc1 (stereo not drawn)
male Balb/c nu/nu mouse, PK-59 xenograft, pancreas; 30 mg/kg, 6 h: 990 ng/g and 840 ng/g
mouse, PK-59 xenograft, tumor; 10 mg/kg, 48 h: 345 ng/g and 234 ng/g
male Balb/c nu/nu mouse (PK-59 xenograft), plasma; 30 mg/kg, 2 h: 9.53 µg/mL
male Balb/c nu/nu mouse (PK-59 xenograft), tumor; 30 mg/kg, 2 h: 1260 ng/g
male Balb/c nu/nu mouse, PK-59 xenograft, plasma; 30 mg/kg, 6 h: 0.611 µg/mL and 1.23 µg/mL and 1.1 µg/mL
mouse (PK-59 xenograft), pancreas; 30 mg/kg, 144 h: 30.3 ng/g
mouse, PK-59 xenograft, pancreas; 10 mg/kg, 48 h: 46 ng/g and 51.6 ng/g
male Balb/c nu/nu mouse (PK-59 xenograft), plasma; 10 mg/kg, 6 h: 0.239 µg/mL

Study 4 — effect on: kinase activity; endpoint: inhibition
Compound: CNc1ncc2cc(-c3cc(OC)cc(OC)c3Cl)c(=O)n(CCc3ccc(NC(=O)C(C#N)=CC(C)(C)N4CCOCC4)cc3)c2n1
Aurora kinase A (AURKA, Homo sapiens, UniProt O14965); 1 µM: 2%
SPHK1 (Homo sapiens, UniProt Q9NYA1); 0.1 µM: 4%
MAPK14 (Homo sapiens, UniProt Q16539); 1 µM: 6%
CSK (Homo sapiens, UniProt P41240); 1 µM: 7%
STK26 (Homo sapiens, UniProt Q9P289); 1 µM: 0%
PAK6 (Homo sapiens, UniProt Q9NQU5); 1 µM: -2%
IGF1R (Homo sapiens, UniProt P08069); 1 µM: -9%
FER (Homo sapiens, UniProt P16591); 1 µM: 14%
SRPK3 (Homo sapiens, UniProt Q9UPE1); 1 µM: 0%
SGK3 (Homo sapiens, UniProt Q96BR1); 0.1 µM: -2%
CDK2 (Homo sapiens, UniProt P24941); 1 µM: 6%
MAP4K4 (Homo sapiens, UniProt O95819); 1 µM: -4%
RPS6KB2 (Homo sapiens, UniProt Q9UBS0); 0.1 µM: -2%

Study 5 — method: FLIPR membrane potential; cell line: CHO-BC; concentration: 30 µM; setting: unit not given; reference: uninhibited; endpoint: remaining activity
Target: Sodium-dependent neutral amino acid transporter B(0)AT1 (SLC6A19, Homo sapiens, UniProt Q695T7)
Chain of UniProt Q695T7 (whole entry, looked up): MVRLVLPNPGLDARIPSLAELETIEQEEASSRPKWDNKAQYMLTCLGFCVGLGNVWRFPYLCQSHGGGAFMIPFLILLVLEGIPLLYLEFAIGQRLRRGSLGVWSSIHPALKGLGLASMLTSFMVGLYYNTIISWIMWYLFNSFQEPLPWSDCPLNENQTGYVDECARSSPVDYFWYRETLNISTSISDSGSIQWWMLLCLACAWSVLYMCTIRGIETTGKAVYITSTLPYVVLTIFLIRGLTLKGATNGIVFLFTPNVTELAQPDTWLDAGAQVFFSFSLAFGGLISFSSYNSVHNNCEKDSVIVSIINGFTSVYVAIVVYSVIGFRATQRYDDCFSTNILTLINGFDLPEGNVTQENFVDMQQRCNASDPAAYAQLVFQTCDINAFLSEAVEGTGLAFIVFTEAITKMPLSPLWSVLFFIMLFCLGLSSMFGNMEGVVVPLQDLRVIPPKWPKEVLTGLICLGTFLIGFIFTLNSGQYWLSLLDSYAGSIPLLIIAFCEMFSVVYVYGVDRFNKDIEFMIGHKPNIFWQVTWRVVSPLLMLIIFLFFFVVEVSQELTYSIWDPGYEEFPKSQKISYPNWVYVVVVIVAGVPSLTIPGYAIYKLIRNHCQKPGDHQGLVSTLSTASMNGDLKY
Cc1cc(OCC(=O)NC(C)C)cc(C)c1I: 0.169 and 0.082 and 0.18 and 0.178
CCNC(=O)COc1cc(C)c(Cl)c(C)c1: 0.518 and 0.413 and 0.431 and 0.486
Cc1cc(OCC(=O)NC(C)C)cc(C)c1Br: 0.27 and 0.196 and 0.208 and 0.237

Study 6 — cell line: U-87 MG; concentration: concentration not given; reference: DMSO; endpoint: log2 fold change
Compound: CCN1/C(=C/C=C2\CCCC(/C=C/C3=[N+](CC)c4ccccc4C3(C)C)=C2NCCCCCCCCN2CCC(Nc3nc4ccccc4n3Cc3ccc(F)cc3)CC2)C(C)(C)c2ccccc21
refers to: CLDN15 mRNA: 1.29
refers to: TMOD1 mRNA: 1.79
refers to: UAP1 mRNA: 0.99
refers to: ZNF644 mRNA: 0.884
refers to: KLF9 mRNA: 1.19
refers to: NUSAP1 mRNA: -1.86
refers to: N4BP2 mRNA: 0.912
refers to: RHOBTB1 mRNA: -1.35
refers to: COQ10B mRNA: 1.36
refers to: RCCD1 mRNA: -0.904
refers to: NR4A3 mRNA: 3.02
refers to: DPYSL3 mRNA: -0.92
refers to: RHBDL3 mRNA: -1.55
refers to: SLC16A6 mRNA: 1.56
refers to: ABAT mRNA: 2.13
refers to: MAZ: -1.07

Study 7 — effect on: thermal unfolding; method: differential scanning fluorimetry; concentration: 5.5 µM; reading: higher = more unfolded; endpoint: SYPRO Orange fluorescence
Compound: C[C@@H]1CN(c2ccc(-c3cc(C(=O)NCCOCCOCCOCCOCCNC(=O)/C=C/c4[nH]cc(C(=O)N[C@@H](CC(N)=O)c5ccc(F)c(Cl)c5)c4-c4ccc(Cl)cc4F)ccc3F)cc2NC(=O)c2c[nH]c(=O)cc2C(F)(F)F)C[C@H](C)N1C
DCAF1: DDB1- and CUL4-associated factor 1 (DCAF1, Homo sapiens, UniProt Q9Y4B6)
Chain of UniProt Q9Y4B6 (whole entry, looked up): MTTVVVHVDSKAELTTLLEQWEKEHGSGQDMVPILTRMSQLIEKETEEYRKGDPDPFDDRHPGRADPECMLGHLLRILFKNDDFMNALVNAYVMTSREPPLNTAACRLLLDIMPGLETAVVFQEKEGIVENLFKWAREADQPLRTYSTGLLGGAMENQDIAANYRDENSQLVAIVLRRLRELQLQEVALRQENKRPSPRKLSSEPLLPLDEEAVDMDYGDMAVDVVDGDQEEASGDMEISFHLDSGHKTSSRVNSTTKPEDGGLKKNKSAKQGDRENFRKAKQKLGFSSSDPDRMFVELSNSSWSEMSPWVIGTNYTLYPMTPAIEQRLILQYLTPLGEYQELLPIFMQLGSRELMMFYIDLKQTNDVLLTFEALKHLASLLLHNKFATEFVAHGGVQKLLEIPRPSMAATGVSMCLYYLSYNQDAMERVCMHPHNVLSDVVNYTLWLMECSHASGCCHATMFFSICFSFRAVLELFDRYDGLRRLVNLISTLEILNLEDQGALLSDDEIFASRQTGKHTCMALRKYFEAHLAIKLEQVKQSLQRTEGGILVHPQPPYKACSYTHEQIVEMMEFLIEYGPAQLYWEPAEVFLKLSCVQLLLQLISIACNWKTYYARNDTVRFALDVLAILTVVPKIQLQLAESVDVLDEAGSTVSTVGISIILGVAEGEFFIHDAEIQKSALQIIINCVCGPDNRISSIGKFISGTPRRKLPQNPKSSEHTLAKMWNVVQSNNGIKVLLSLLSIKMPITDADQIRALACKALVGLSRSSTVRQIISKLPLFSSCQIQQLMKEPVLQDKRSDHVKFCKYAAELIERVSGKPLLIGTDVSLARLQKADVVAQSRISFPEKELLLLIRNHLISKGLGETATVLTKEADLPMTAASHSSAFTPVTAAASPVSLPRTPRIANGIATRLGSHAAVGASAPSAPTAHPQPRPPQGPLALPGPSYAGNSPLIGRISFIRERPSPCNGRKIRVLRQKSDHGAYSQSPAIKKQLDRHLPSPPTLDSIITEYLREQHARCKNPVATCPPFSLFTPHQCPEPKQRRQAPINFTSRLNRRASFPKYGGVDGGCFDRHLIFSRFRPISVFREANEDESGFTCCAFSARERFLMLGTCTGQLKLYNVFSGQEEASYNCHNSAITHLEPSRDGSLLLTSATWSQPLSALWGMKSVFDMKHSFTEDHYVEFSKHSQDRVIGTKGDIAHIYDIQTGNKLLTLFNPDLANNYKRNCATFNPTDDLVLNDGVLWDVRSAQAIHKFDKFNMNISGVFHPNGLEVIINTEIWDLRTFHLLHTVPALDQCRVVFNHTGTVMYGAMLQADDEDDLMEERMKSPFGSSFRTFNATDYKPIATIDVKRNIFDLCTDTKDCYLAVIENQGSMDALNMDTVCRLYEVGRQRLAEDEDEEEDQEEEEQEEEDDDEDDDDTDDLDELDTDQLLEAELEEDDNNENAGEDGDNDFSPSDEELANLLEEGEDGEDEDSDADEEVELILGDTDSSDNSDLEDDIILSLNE
WDR5: WD repeat-containing protein 5 (WDR5, Homo sapiens, UniProt P61964)
DCAF1; 80.21 °C: 45000 a.u.
DCAF1; 94.61 °C: 30100 a.u.
WDR5; 89.61 °C: 51600 a.u.
WDR5; 53.01 °C: 16800 a.u.
WDR5; 69.81 °C: 15900 a.u.
DCAF1; 62.41 °C: 51700 a.u.
DCAF1; 58.01 °C: 31300 a.u.
WDR5; 44.4 °C: 15200 a.u.
DCAF1; 93.41 °C: 31200 a.u.
DCAF1; 44.8 °C: 12900 a.u.
WDR5; 77.61 °C: 33100 a.u.

Study 8 — concentration: 1 µM; endpoint: remaining binding
SMILES: CC[C@@]1(c2cccc(C(F)(F)F)c2)C2=C(Nc3n[nH]cc31)[C@H](F)C(C)(C)CC2=O (single isomer, unassigned)
CAMK1D (Homo sapiens, UniProt Q8IU85); kinase binding, KINOMEscan; reference: DMSO control: 100%
STK16 (Homo sapiens, UniProt O75716); binding, competition with immobilised ligand: 90%
HUNK (Homo sapiens, UniProt P57058); binding, competition with immobilised ligand: 77%
DSTYK (Homo sapiens, UniProt Q6XUX3); binding, competition with immobilised ligand: 75%
MET (Homo sapiens, UniProt P08581, M1250T); binding, competition with immobilised ligand: 99%
MAPK7 (Homo sapiens, UniProt Q13164); kinase binding, KINOMEscan; reference: DMSO control: 100%
EPHA7 (Homo sapiens, UniProt Q15375); binding, competition with immobilised ligand: 100%

Study 9 — method: KINOMEscan; setting: unit not given; reference: DMSO; endpoint: remaining binding
Compound: CCOc1ccc2nc(Sc3nc(Nc4ccc(I)cc4)nc(N4CCOCC4)n3)sc2c1
Target: 1-phosphatidylinositol 3-phosphate 5-kinase (PIKFYVE, Homo sapiens, UniProt Q9Y2I7)
Chain of UniProt Q9Y2I7 (whole entry, looked up): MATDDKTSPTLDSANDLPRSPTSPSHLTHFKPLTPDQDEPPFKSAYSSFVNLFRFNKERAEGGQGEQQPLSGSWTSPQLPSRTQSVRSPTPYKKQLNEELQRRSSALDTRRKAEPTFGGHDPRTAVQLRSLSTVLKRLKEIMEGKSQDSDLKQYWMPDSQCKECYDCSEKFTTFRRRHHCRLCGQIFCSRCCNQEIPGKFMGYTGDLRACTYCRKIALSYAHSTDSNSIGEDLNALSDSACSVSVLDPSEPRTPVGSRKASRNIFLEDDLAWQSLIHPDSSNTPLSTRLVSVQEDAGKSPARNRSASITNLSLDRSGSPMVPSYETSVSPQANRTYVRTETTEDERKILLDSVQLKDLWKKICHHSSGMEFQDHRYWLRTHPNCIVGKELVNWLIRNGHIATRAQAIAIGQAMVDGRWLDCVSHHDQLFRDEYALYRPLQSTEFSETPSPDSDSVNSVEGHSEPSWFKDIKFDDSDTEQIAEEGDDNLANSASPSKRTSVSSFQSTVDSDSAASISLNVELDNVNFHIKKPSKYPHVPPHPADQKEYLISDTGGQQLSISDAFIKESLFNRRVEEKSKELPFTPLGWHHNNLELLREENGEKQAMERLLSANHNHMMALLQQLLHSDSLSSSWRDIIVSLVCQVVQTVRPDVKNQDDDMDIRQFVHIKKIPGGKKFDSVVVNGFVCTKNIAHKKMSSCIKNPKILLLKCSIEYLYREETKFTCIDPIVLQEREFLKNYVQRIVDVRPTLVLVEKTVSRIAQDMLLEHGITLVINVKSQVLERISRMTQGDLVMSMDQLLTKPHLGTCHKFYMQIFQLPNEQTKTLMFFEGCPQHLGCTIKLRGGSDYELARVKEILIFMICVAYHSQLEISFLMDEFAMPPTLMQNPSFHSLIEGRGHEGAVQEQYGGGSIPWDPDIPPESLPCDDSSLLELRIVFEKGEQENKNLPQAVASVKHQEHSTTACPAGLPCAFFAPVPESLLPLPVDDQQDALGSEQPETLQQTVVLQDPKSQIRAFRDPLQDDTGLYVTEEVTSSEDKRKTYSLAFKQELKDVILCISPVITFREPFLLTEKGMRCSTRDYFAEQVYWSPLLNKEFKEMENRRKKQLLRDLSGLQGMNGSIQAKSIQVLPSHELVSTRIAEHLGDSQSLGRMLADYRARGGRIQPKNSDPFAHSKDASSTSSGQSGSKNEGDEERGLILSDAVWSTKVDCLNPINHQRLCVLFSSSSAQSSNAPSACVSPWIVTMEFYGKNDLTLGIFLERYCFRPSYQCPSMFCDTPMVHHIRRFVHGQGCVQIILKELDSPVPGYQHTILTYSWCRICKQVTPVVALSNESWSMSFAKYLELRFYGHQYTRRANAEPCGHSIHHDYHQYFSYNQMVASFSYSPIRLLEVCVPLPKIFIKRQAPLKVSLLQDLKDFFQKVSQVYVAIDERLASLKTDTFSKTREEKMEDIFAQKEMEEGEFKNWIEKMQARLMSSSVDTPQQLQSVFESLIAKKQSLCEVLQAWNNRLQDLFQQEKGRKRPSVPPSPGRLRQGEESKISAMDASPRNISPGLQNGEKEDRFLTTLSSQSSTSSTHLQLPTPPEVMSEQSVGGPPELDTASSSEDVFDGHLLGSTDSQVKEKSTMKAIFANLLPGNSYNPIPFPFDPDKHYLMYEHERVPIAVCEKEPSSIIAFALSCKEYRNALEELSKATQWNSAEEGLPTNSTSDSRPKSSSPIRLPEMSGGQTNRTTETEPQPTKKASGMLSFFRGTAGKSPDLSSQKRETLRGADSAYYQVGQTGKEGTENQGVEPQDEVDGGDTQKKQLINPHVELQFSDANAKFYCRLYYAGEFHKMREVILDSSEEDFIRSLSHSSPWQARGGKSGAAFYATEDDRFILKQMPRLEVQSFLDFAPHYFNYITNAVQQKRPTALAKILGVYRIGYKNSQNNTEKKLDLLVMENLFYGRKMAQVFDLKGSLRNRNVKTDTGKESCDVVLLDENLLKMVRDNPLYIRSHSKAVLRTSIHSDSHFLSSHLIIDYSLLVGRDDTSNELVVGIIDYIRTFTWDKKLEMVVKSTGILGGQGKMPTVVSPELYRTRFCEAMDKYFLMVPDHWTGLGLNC
1100 nM: 0.0262 and 0.0218
367 nM: 0.0674 and 0.064
3330 nM: 0.0054 and 0.00545
0.168 nM: 0.938 and 0.764
9900 nM: 0.00259 and 0.00238
0.508 nM: 0.853 and 0.846
41.2 nM: 0.418 and 0.509
10000 nM: 0.00233 and 0.00337

Study 10 — effect on: kinase activity; action: inhibitor; method: ADP-Glo; time: 1 h; endpoint: inhibition
SMILES: Cc1c(NC(=O)c2cccn(-c3ccc(F)cc3)c2=O)ccc(Oc2ccnc(NC(=O)C3CC3)c2)c1C
Target: Receptor-interacting serine/threonine-protein kinase 3 (RIPK3, Homo sapiens, UniProt Q9Y572)
Chain of UniProt Q9Y572 (whole entry, looked up): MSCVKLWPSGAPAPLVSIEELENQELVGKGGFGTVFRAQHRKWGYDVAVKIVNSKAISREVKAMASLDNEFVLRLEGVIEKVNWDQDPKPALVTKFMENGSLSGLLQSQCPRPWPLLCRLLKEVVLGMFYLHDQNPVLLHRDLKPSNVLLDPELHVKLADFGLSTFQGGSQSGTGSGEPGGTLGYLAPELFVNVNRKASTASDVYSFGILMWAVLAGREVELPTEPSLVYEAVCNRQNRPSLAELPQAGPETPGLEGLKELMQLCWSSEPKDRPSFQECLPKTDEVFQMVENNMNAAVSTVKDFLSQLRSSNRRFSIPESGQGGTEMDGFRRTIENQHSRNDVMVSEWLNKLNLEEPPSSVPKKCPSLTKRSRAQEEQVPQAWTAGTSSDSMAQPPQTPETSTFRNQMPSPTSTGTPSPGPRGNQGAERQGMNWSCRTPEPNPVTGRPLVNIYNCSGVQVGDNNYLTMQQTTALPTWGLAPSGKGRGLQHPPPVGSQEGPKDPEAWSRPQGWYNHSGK
62.5 nM: 71.9%
500 nM: 100%
15.62 nM: 37%

Study 11 — endpoint: inhibition
SMILES: CCN1C(=O)C(O)(C(=O)O)Oc2cc(F)ccc21 (stereo not drawn)
Arabidopsis thaliana; hypocotyl length; Col-0, seedlings; 25 µg/mL: 28.4%
Alopecurus aequalis; fresh weight; 150 g ai/ha, pre-emergence treatment: 48.2% and 40.8% and 41.5%
Echinochloa crus-galli; fresh weight; 150 g ai/ha, post-emergence treatment: 51.3% and 47.7% and 49.1%
Setaria viridis; fresh weight; 150 g ai/ha, pre-emergence treatment: 33.1% and 34.6% and 29.2%
Oryza sativa; fresh weight; soil surface spray, 150 g ai/ha, 21 days, pre-emergence crop safety: 22.3% and 22% and 23.6%
Arabidopsis thaliana; hypocotyl length; Col-0; 6.25 µg/mL, 7 days, seed germination, dark: 15.3%
Arabidopsis thaliana; root length; Col-0; 6.25 µg/mL, 7 days, seed germination, dark: 17%
Arabidopsis thaliana; root length; Col-0, seedlings; 3.125 µg/mL; reference: water control: 10.8%
Arabidopsis thaliana; hypocotyl length; Col-0; 50.0 µg/mL, 7 days, seed germination, dark: 32.4%
Arabidopsis thaliana; root length; Col-0, seedlings; 100 µg/mL; reference: water control: 72.4%
Arabidopsis thaliana; root length; Col-0; 25.0 µg/mL, 7 days, seed germination, dark: 36.4%
Abutilon theophrasti; fresh weight; 150 g ai/ha, pre-emergence treatment: 13.7% and 12.5%
Arabidopsis thaliana; root length; Col-0, seedlings; 12.5 µg/mL; reference: water control: 29.7%
Arabidopsis thaliana; root length; Col-0; 50.0 µg/mL, 7 days, seed germination, dark: 42.6%

Mixed results
NC/C(=C\F)COc1cccc(Cn2c(=S)[nH]c(=O)c3[nH]cnc32)c1 — remaining compound (human hepatocytes; 60 min): 85.5% and 74.1% and 69.7% and 72.3%
Cc1nc(C)c(C=[N+]([O-])C(C)(C)C)nc1C — fluorescence intensity (immunofluorescence, refers to: 3-nitrotyrosine; mouse, MPTP model, substantia nigra; 30 mg/kg; reference: sham mice): 215%
NC/C(=C\F)COc1ccc(Cl)c(-c2cc(=O)[nH]c(=S)n2CC(N)=O)c1 — inhibition (Myeloperoxidase (MPO, Homo sapiens, UniProt P05164); enzyme activity, inhibitor, fluorescence; 0.5556 µM): 72%

A few entries again (study 8):
STK16 (Homo sapiens, UniProt O75716); binding, competition with immobilised ligand: 90%
EPHA7 (Homo sapiens, UniProt Q15375); binding, competition with immobilised ligand: 100%
DSTYK (Homo sapiens, UniProt Q6XUX3); binding, competition with immobilised ligand: 75%
CAMK1D (Homo sapiens, UniProt Q8IU85); kinase binding, KINOMEscan; reference: DMSO control: 100%
MET (Homo sapiens, UniProt P08581, M1250T); binding, competition with immobilised ligand: 99%
HUNK (Homo sapiens, UniProt P57058); binding, competition with immobilised ligand: 77%
MAPK7 (Homo sapiens, UniProt Q13164); kinase binding, KINOMEscan; reference: DMSO control: 100%
